Assay results gathered from unrelated publications.
Several values in a cell are separate wells, animals, samples, runs or records. ± gives the spread as reported.

| Structure (SMILES) | assay | test system | setting | scale | measurement | result |
| --- | --- | --- | --- | --- | --- | --- |
| CCCCCCCCCCCCCCCC(=O)N[C@@H](CCC(=O)NCCCC[C@H](NC(=O)[C@H](CC(=O)O)NC(=O)[C@H](CO)NC(=O)[C@@H](NC(=O)[C@H](Cc1ccccc1)NC(=O)[C@@H](NC(=O)CNC(=O)[C@H](CCC(N)=O)NC(=O)[C@H](CO)NC(=O)[C@@H](N)Cc1c[nH]cn1)[C@@H](C)O)[C@@H](C)O)C(=O)N[C@@H](CO)C(=O)N[C@@H](CCC(=O)O)C(=O)N[C@@H](Cc1ccc(O)cc1)C(=O)N[C@@H](CC(C)C)C(=O)N[C@@H](CC(=O)O)C(=O)N[C@@H](CO)C(=O)N[C@@H](CCC(=O)O)C(=O)N[C@@H](CCCNC(=N)N)C(=O)N[C@@H](C)C(=O)N[C@@H](CCCNC(=N)N)C(=O)N[C@@H](CC(=O)O)C(=O)N[C@@H](Cc1ccccc1)C(=O)N[C@H](C(=O)N[C@@H](C)C(=O)N[C@@H](Cc1c[nH]c2ccccc12)C(=O)N[C@@H](CC(C)C)C(=O)N[C@@H](CCC(=O)O)C(=O)N[C@@H](C)C(=O)NCC(=O)NCC(=O)O)C(C)C)C(=O)O | refers to: Vomiting | humans CrCl below 20 mL/min | subcutaneous, 100 µg single dose | – | treatment-related adverse events | 33.3% |
| CC(C)(O)c1cnc2ncc(-c3ccc(F)c(-c4c(F)cccc4C#N)c3)n2n1 | food-maintained responding | rhesus monkey | intramuscular, dose not given, 180 min, acute dependence model, together with: midazolam 1 mg/kg | – | precipitated withdrawal | no effect |
| Cn1c(-c2ccc(C(N)=O)cc2F)nnc1C(C)(C)Oc1c(F)cc(Cl)cc1F | – | human | oral, 60 mg, single ascending dose, incl. administration site | – | general disorder TEAE | 33.3% |
| N.N.[Cl][Pt][Cl] | – | mouse, serum | dose not given | – | AST | 123 IU/L and 186 IU/L and 86 IU/L |
| COc1ncnn2ccc(-c3cnc4nc(C)n(Cc5nnc([C@@H](C)F)o5)c4c3)c12 | – | human patients | oral, dose not given | – | incidence of grade 1 vomiting | 7.1% |
| CO[C@H]1C[C@@H]2CC[C@@H](C)[C@@](O)(O2)C(=O)C(=O)N2CCCC[C@H]2C(=O)O[C@H]([C@H](C)C[C@@H]2CC[C@@H](OC(=O)NCCOCCOCCOCCOCCOCCOCCOCCOCCC(=O)N3CCc4cc(Cn5nc(-c6ccc7oc(N)nc7c6)c6c(N)ncnc65)ccc4C3)[C@H](OC)C2)C[C@@H](O)[C@H](C)/C=C(\C)[C@@H](O)[C@@H](OC)C(=O)[C@H](C)C[C@H](C)/C=C/C=C/C=C/1C | – | patients with advanced solid tumours | intravenous, 8 mg weekly, grade 3 or higher | – | diarrhoea incidence | 0% |
| CCc1ccc(CC/C=C/c2ccc3c(c2)C(=O)CC3)cc1 | – | Sprague-Dawley rat, male, serum | oral, 30 mg/kg/day, 14 days | – | potassium | 4.47 mM |
| COc1cc(N2CCC(N3CCN(C)CC3)CC2)ccc1Nc1ncnc(Nc2ccccc2S(=O)(=O)C(C)C)n1 | refers to: Vomiting | Japanese patients with solid tumours | oral, dose not given, all grades | – | treatment-emergent adverse events | 7 number (percent) |
| Clc1ccc(-c2ccccc2)cc1 | – | female Sprague-Dawley rats, serum | inhalation, 23 µg/rat, 0 h after exposure | – | total protein | 5 ± 1 g/dL |
| Cn1ncc(-c2nc(N[C@H]3CC[C@H](N)CC3)ncc2Cl)c1CC1CC1 | phase I dose escalation | human patients | any-grade TEAE | relative to: patients | peripheral oedema incidence | 8% |
| CN1CC[C@@H](c2c(O)cc(O)c3c(=O)cc(-c4ccc(C(F)(F)F)cc4Cl)oc23)[C@@H]1CO | refers to: Hypertension | B-cell malignancies | oral, 200 mg, intermittent dosing | – | patients with adverse event | 0% |
| COc1cc2c(Oc3ccc4[nH]c(C)cc4c3F)ccnc2cc1OCC1(N)CC1 | – | paediatric recurrent refractory sarcoma | concentration not given, whole group | – | grade 1 or 2 ALT elevation | 26.5% |
| C[C@]1(CO)Cc2ncn(-c3ccc(C#N)c(Cl)c3)c2C(=O)O1 | – | healthy humans | concentration not given, food-effect part total | – | drug-related Fatigue incidence | 0% |
| O=C(c1ccc(F)c(F)c1Nc1ccc(I)cc1F)N1CC(O)([C@@H]2CCCCN2)C1 | – | human patients | oral, dose not given, dose escalation, suspension | – | AE causing treatment withdrawal | 15% |
| O=C(Nc1ccccc1)C1CCN(C(=O)Oc2cccnc2)CC1 | – | healthy women | oral, 60 mg, 7 days | – | adverse event Constipation | 0% |
| COc1cc(-c2coc3cc4c(c(OC)c3c2=O)OCO4)cc(OC)c1OC | – | Sprague Dawley rat, plasma | oral, 10 g lyophilized powder/kg, high dose | – | Tmax | 2.29 ± 0.95 h |
| CC1(C)NC(=O)N(c2ccc(F)c(CC(F)(F)F)c2)C1=O | – | Schistosoma mansoni-infected NMRI mice | oral, 100 mg/kg, single dose | – | toxicity | toxic |

Excerpt of the above:
| Structure (SMILES) | assay | test system | setting | scale | measurement | result |
| --- | --- | --- | --- | --- | --- | --- |
| O=C(c1ccc(F)c(F)c1Nc1ccc(I)cc1F)N1CC(O)([C@@H]2CCCCN2)C1 | – | human patients | oral, dose not given, dose escalation, suspension | – | AE causing treatment withdrawal | 15% |
| CC(C)(O)c1cnc2ncc(-c3ccc(F)c(-c4c(F)cccc4C#N)c3)n2n1 | food-maintained responding | rhesus monkey | intramuscular, dose not given, 180 min, acute dependence model, together with: midazolam 1 mg/kg | – | precipitated withdrawal | no effect |
